Assay results collected from several papers.
Lines come from different studies, so protocols differ. ± marks the error that the study gave.

CC(C)[C@@H]1NC(=O)[C@H](Cc2ccccc2)NC(=O)[C@H](Cc2ccc(O)cc2)NC(=O)CCSSC[C@@H](C(=O)N2CCC[C@H]2C(=O)N[C@H](CCCNC(=N)N)C(=O)NCC(N)=O)NC(=O)[C@H](CCC(N)=O)NC1=O — ALT (Wistar rat, blood; intravenous, 100 µg/kg single dose, 72 h): 20.4 ± 3.1 IU/L
COC(=O)C[C@](O)(CCCC(C)(C)OC(C)=O)C(=O)O[C@@H]1C(OC)=C[C@]23CCCN2CCc2cc4c(cc2[C@H]13)OCO4 — concentration (CD1 mouse, esophagus; subcutaneous, 1 mg/kg, 0.5 h): 68.3 ng/mL
[11CH3]n1c(=O)n(CCCO)c(=O)c2c1nc(Oc1cccc(OC(F)(F)F)c1)n2Cc1ccc(Cl)cc1 — tracer uptake (ex vivo biodistribution; Sprague Dawley rat, fat; 5 min post injection): 0.14 ± 0.05 %ID/g
Cc1cc(Nc2nc(C[C@@]3(C(=O)O)CCN(Cc4cccc(Cl)c4F)[C@H](C)C3)cc(C)c2F)n[nH]1 — Vd (beagle dog, plasma; intravenous, 1 mg/kg, single dose): 0.559 L/kg
COc1ccc(F)cc1S(=O)(=O)Nc1cnc2c(c1)C(=O)NCCO2 — Tmax (male C57BL/6 mouse, plasma; oral, 1 mg/kg, single dose): 1 h
CCCCCCCC(=O)NCCCC[C@H](NC(=O)[C@H](Cc1ccccc1)NC(=O)[C@@H](CCCNC(=N)N)NC(=O)[C@@H](N)Cc1ccc(O)cc1)C(N)=O — tissue concentration (CD-1 mouse, male, lungs; intravenous, 3 mg/kg, 180 min): 683 ± 90 ng/g
O=C(CN1CCN(c2cc3c(cc2F)c(=O)c(C(=O)O)cn3C2CC2)CC1)Nc1ccc(Cl)cc1 — clearance (BALB/c mice, female, plasma; iv, 3.75 mg/kg): 0.00416 mL/min
OC1CCN(c2ncc(-c3cc4ccc([18F])cc4[nH]3)cn2)CC1 — peak brain radioactivity (dynamic PET; Sprague-Dawley rats, both sexes, whole brain; intravenous, dose not given): 1.7 ± 0.2 SUV
CC(C)[C@H](NC(=O)CNC(=O)[C@H](CCC(N)=O)NC(=O)[C@H](C)N)C(=O)O — definitely drug-related adverse events (healthy human; intravenous, 1 mg/kg single dose; baseline: subjects): 0%
O=P(O)(O)c1ccc(O)c(CO)c1 — plasma detection (mice; oral, 25 mg/kg): not detected
CCCCCCCC(=O)OC[C@H](NC(=O)[C@H](CO)NC(=O)CN)C(=O)N[C@@H](Cc1ccccc1)C(=O)N[C@@H](CC(C)C)C(=O)N[C@@H](CO)C(=O)N1CCC[C@H]1C(=O)N[C@@H](CCC(=O)O)C(=O)N[C@@H](Cc1cnc[nH]1)C(=O)N[C@@H](CCC(N)=O)C(=O)N[C@@H](CCCNC(=N)N)C(=O)N[C@H](C(=O)N[C@@H](CCC(N)=O)C(=O)N[C@@H](CCC(N)=O)C(=O)N[C@@H](CCCNC(=N)N)C(=O)N[C@@H](CCCCN)C(=O)N[C@@H](CCC(=O)O)C(=O)N[C@@H](CO)C(=O)N[C@@H](CCCCN)C(=O)N[C@@H](CCCCN)C(=O)N1CCC[C@H]1C(=O)N1CCC[C@H]1C(=O)N[C@@H](C)C(=O)N[C@@H](CCCCN)C(=O)N[C@@H](CC(C)C)C(=O)N[C@@H](CCC(N)=O)C(=O)N1CCC[C@H]1C(=O)N[C@@H](CCCNC(=N)N)C(=O)O)C(C)C — dose-normalised Cmax (human, plasma; intravenous infusion, 5 µg/kg/h, 65 min infusion): 3.92 ± 0.47
CC[C@H](C)C(=O)N1CCC(NC(=O)Nc2ccc(OC(F)(F)F)c(F)c2)CC1 — AUC(0-t) (human, fed, plasma; oral, 8 mg, single dose tablet, geometric mean): 4120 ng·h/mL
CC[C@@H](C)[C@@H](NC(=O)[C@@H](C)NC(=O)[C@@H](CCCCN)NC(=O)[C@@H](CC(C)C)NC(=O)[C@@H](C)NC(=O)[C@H](NC(=O)[C@@H](Cc1c[nH]cn1)NC(=O)[C@@H](CC(C)C)NC(=O)[C@H](NC(=O)[C@H](NC(=O)[C@@H](CCCCN)NC(=O)[C@@H](CCCCN)NC(=O)[C@@H](C)NC(=O)[C@@H](CO)NC(=O)[C@@H](CCCCN)NC(=O)[C@@H](Cc1ccccc1)NC(=O)[C@H](NC(=O)[C@@H](CCCCN)NC(=O)[C@@H](CC(C)C)NC(=O)[C@@H](Cc1ccccc1)NC(=O)[C@@H](CO)NC(=O)[C@@H](CCCCN)NC(=O)[C@@H](Cc1c[nH]c2ccccc12)NC(=O)[C@@H](CCCCN)NC(C)=O)[C@H](C)O)[C@H](C)O)C(C)C)[C@H](C)O)C(=O)N[C@H](CO)C(=O)N[C@H](CO)C(N)=O — mean residue ellipticity (circular dichroism at 222 nm; benign buffer; pH 7.0, 5 °C): 1150 deg cm2/dmol
CCCCCCCCCCCCC(=O)O.O=C1CCCC2C3CCCN4CCCC(CN12)C34 (stereo not drawn) — critical micelle concentration (water; concentration not given, 313.15 K): 0.00255 mol/kg
COc1cc2c3c(c4cc(OC)c(OC)cc4c2cc1OC)CN1CCCCC1C3 (stereo not drawn) — clearance (Sprague-Dawley rat, male; intravenous, dose not given): 101 mL/min/kg
COc1ccc(C)cc1NC(=O)OC1CC2CCCC(C1)N2Cc1ccc(CC[18F])cc1 (stereo not drawn) — tissue uptake (BALB/c mice, EMT6 tumour, muscle; 30 min): 2.9 ± 0.68 %ID/g
CN(C)C(CNC(=O)Nc1cc(C(F)(F)F)ccc1N1CCOCC1)c1ccncc1 (stereo not drawn) — serum alkaline phosphatase (mouse, serum; intraperitoneal, 180 mg/kg single dose): 63 U/L
C[C@@H]1CC[C@H]2[C@@H](C)CO[C@@H]3O[C@@]4(C)CC[C@@H]1[C@]32OO4 — measured concentration (item: compound; rat, plasma; 2.00 ng/mL spiked, 24 h, autosampler at 4 °C): 1.95 ± 0.11 ng/mL
COC1CC(OC2CCC3(C)C4CCC5(C)C(C6=CC(=O)OC6)CCC5(O)C4CCC3(O)C2)OC(C)C1OC1OC(CO)C(O)C(O)C1O (stereo not drawn) — metabolic stability (human liver S9; 1 and 3 µg/mL, 120 min): stable
CC[C@H](C)[C@H](NC(=O)CNC(=O)[C@H](Cc1ccccc1)NC(=O)[C@H](CCCCN)NC(=O)[C@H](CCCCN)NC(=O)[C@H](CCCNC(=N)N)NC(=O)[C@H](CCCNC(=N)N)NC(=O)[C@H](CCCNC(=N)N)NC(=O)[C@H](CCC(N)=O)NC(=O)[C@H](CCCNC(=N)N)NC(=O)[C@H](CCCNC(=N)N)NC(=O)[C@H](CCCCN)NC(=O)[C@H](CCCCN)NC(=O)[C@H](CCCNC(=N)N)NC(=O)CNC(=O)[C@@H](N)Cc1ccc(O)cc1)C(=O)N[C@H](C(=O)N[C@@H](CC(N)=O)C(=O)N[C@@H](CO)C(=O)N[C@@H](CCC(N)=O)C(=O)N[C@@H](CC(C)C)C(=O)N[C@@H](CCCCN)C(=O)N1CCC[C@H]1C(=O)O)[C@@H](C)O — logD (derivative UV-vis spectrophotometry; DMPC:Chol:SM large unilamellar vesicles vs PBS; 30 min, pH 7.4, 37 °C, lipid ratio 75:15:10): 3.7 ± 0.13
N=C(N)NCc1ccc(C(=O)NCCCC[C@H](NC(=O)N[C@@H](CCC(=O)O)C(=O)O)C(=O)O)cc1[131I] — tissue uptake (SCID mouse, PC-3 xenografts, spleen; 2 h): 7.31 ± 3.73 %ID/g

Excerpt of the above:
O=P(O)(O)c1ccc(O)c(CO)c1 — plasma detection (mice; oral, 25 mg/kg): not detected
CCCCCCCC(=O)OC[C@H](NC(=O)[C@H](CO)NC(=O)CN)C(=O)N[C@@H](Cc1ccccc1)C(=O)N[C@@H](CC(C)C)C(=O)N[C@@H](CO)C(=O)N1CCC[C@H]1C(=O)N[C@@H](CCC(=O)O)C(=O)N[C@@H](Cc1cnc[nH]1)C(=O)N[C@@H](CCC(N)=O)C(=O)N[C@@H](CCCNC(=N)N)C(=O)N[C@H](C(=O)N[C@@H](CCC(N)=O)C(=O)N[C@@H](CCC(N)=O)C(=O)N[C@@H](CCCNC(=N)N)C(=O)N[C@@H](CCCCN)C(=O)N[C@@H](CCC(=O)O)C(=O)N[C@@H](CO)C(=O)N[C@@H](CCCCN)C(=O)N[C@@H](CCCCN)C(=O)N1CCC[C@H]1C(=O)N1CCC[C@H]1C(=O)N[C@@H](C)C(=O)N[C@@H](CCCCN)C(=O)N[C@@H](CC(C)C)C(=O)N[C@@H](CCC(N)=O)C(=O)N1CCC[C@H]1C(=O)N[C@@H](CCCNC(=N)N)C(=O)O)C(C)C — dose-normalised Cmax (human, plasma; intravenous infusion, 5 µg/kg/h, 65 min infusion): 3.92 ± 0.47
CC[C@H](C)C(=O)N1CCC(NC(=O)Nc2ccc(OC(F)(F)F)c(F)c2)CC1 — AUC(0-t) (human, fed, plasma; oral, 8 mg, single dose tablet, geometric mean): 4120 ng·h/mL
